# Measurements pooled from the literature.
# Compare with care: the assays were run in different laboratories. ± gives the spread as reported.
Compound,tested on,assay,test system,setting,scale,endpoint,value
OC(COc1ccc2cc(Br)ccc2c1)Cn1ccnc1 (stereo not shown),Trypanosoma cruzi,"reporter mRNA translation, inhibitor, measured: Renilla luciferase mRNA",cell-free extract,"concentration not given, test 3",baseline: positive over negative control,translation activity,109%
C=CC(=O)N1[C@@H](c2ccc3c(c2)OCO3)c2[nH]c3ccccc3c2C[C@H]1C(=O)N1CCN(C)CC1,CCNE1 WT-3xFLAG:CDK2 complex,"co-IP TMT proteomics, measured: NPM1",HEK-293T,"20 µM, 6 h",baseline: DMSO,log2 fold change,-0.1
CN1CCCNC(=O)CCC(=O)NCCCN(C)CCCNc2cccc3c2C(=O)c2cccc(c2C3=O)NCCC1,telomeric G-quadruplex DNA,"DNA binding, UV-Vis titration",,,baseline: Ka telomeric G1 over double-stranded DNA,selectivity ratio,1800
CC(C)(C)c1cc([N+](=O)[O-])c(NCCNC(=O)CCC(=O)O)c([N+](=O)[O-])c1,anti-BL mouse monoclonal antibody,"binding, indirect competitive ELISA",,"pH 7.4, 1% methanol",,IC50,0.385 ng/mL
c1ccc(-c2n[nH]cc2-c2ccnc3ccccc23)nc1,CDC5 (Candida albicans),"kinase binding, MIB/MS competition",Candida albicans lysate,1 µM,baseline: DMSO,log2 fold change,0.07
CNS(=O)(=O)Nc1nccc(Cc2c(C)c3ccc(Oc4ncccc4F)cc3oc2=O)c1F,FTC-133,cell viability,,7 days,,IC50,> 1 µM
Cc1ncsc1-c1ccc(C(C)NC(=O)C2CC(O)CN2C(=O)C(NC(=O)CCCCCCCCCCN2CCCC(Nc3ncc(Cl)c(Nc4ccccc4S(=O)(=O)C(C)C)n3)C2)C(C)(C)C)cc1 (stereo not shown),22Rv1,"RNA-seq, measured: PRELID3A mRNA",,concentration not given,baseline: DMSO,log2 fold change,-1.48
CC1CCC2C(C)(C)C(O)CCC2(C)C12Cc1c(O)cc(CO)c(C=O)c1O2 (stereo not shown),StaI′ (Stachybotrys chartarum),substrate,,"30 min, pH 7.5, 40 °C",,Vmax,4.16 nmol/min/mg
COC1CN([C@H]2CC[C@H]([C@@]3(C)Oc4c(Cl)cc(C(=O)NCc5c(SC)cc(C)[nH]c5=O)c(C)c4O3)CC2)C1,,"RNA-seq, measured: MEIS1","human, whole blood","dose not given, 24 h",baseline: pretreatment baseline,log2 fold change,3.7
O=C(CCC(=O)Nc1ccc(Cl)cc1Cl)N/N=C/c1ccc([N+](=O)[O-])o1,Trypanosoma cruzi,"reporter mRNA translation, inhibitor, measured: Renilla luciferase mRNA",cell-free extract,"concentration not given, test 1",baseline: positive over negative control,translation activity,112%
Cc1[nH]nc2c1N=C(c1ccccc1Cl)c1cnc(N3CCOCC3)cc1N2,"imidazoline I2 receptor, rat",radioligand binding,brain,10 µM,,inhibition,18%
CC1(C)C[N+]2=Cc3ccc4[n]3[Au-]23[n]2c(ccc2-c2nc5ccccc5nc2-4)C=[N+]3C1.F[P-](F)(F)(F)(F)F,human ACTN3 291-bp linear dsDNA,high-resolution melt,,404 nM,,melting temperature,83.4 °C
CCCC[C@@H]1NC(=O)[C@@H](CC(C)C)NC(=O)[C@H](CCCCNC(=O)CN2CCN(CC(=O)O)CCN(CC(=O)O)CC2)NC(=O)[C@@H](CO)NC(=O)[C@H](Cc2c[nH]cn2)NC(=O)[C@@H](Cc2c[nH]c3ccccc23)NC1=O [copper-64 labelled],,,"Balb/c mice, heart","intravenous, dose not given",,tissue uptake,0.19 ± 0.05 %ID/g
C=CC(=O)Nc1cccc(Cn2ncc3cnc(Nc4cnn(CCOC)c4)nc32)c1,AXL human,"binding, KINOMEscan",,100 nM,lower = stronger binding,percent of control,100%
CC[C@H]1OC(=O)[C@H](C)[C@@H](OC(=O)Cc2ccc(OC(F)(F)F)cc2)[C@H](C)[C@@H](O[C@@H]2O[C@H](C)C[C@H](N(C)C)[C@H]2O)[C@](C)(OC)C[C@@H](C)C(=O)[C@H](C)[C@@H](O)[C@]1(C)O,Escherichia coli ribosome,"in vitro transcription-translation, inhibitor",,,,IC50,3.4 µM
CC1(C)CC(c2cn(C3CCCN(C(=O)c4ccc5c(c4)CCOC5(C)C)CC3)nn2)CO1 (stereo not shown),FSP1 L323A,"resorufin formation, inhibitor",,"together with: NADH, resazurin",,IC50,no inhibition
Fc1ccc(Nc2nc(NC3CCCCC3)c3cc(C(F)(F)F)ccc3n2)cc1F,β2AR/β1AR ECL1/3 chimera,"β-arrestin2 recruitment, antagonist, BRET",,together with: isoprenaline 1 µM,,pIC50,6.7
C1=[N+]2CCCC[N+]3=Cc4ccc5[n]4[Au-]23[n]2c1ccc2-c1nc2ccccc2nc1-5.F[P-](F)(F)(F)(F)F,human ACTN3 291-bp linear dsDNA,high-resolution melt,,52 µM,,melting temperature,87.2 °C
Nc1ncc(-c2cc(-c3cnn(CC(F)(F)F)c3)ncc2F)nc1C(=O)NC1CNCC(F)C1 (stereo not shown),JNK2,KINOMEscan competition binding,,1 µM,baseline: DMSO control,remaining binding,100%

# For quick reference, copied from above:
Compound,tested on,assay,test system,setting,scale,endpoint,value
O=C(CCC(=O)Nc1ccc(Cl)cc1Cl)N/N=C/c1ccc([N+](=O)[O-])o1,Trypanosoma cruzi,"reporter mRNA translation, inhibitor, measured: Renilla luciferase mRNA",cell-free extract,"concentration not given, test 1",baseline: positive over negative control,translation activity,112%
CCCC[C@@H]1NC(=O)[C@@H](CC(C)C)NC(=O)[C@H](CCCCNC(=O)CN2CCN(CC(=O)O)CCN(CC(=O)O)CC2)NC(=O)[C@@H](CO)NC(=O)[C@H](Cc2c[nH]cn2)NC(=O)[C@@H](Cc2c[nH]c3ccccc23)NC1=O [copper-64 labelled],,,"Balb/c mice, heart","intravenous, dose not given",,tissue uptake,0.19 ± 0.05 %ID/g
Cc1[nH]nc2c1N=C(c1ccccc1Cl)c1cnc(N3CCOCC3)cc1N2,"imidazoline I2 receptor, rat",radioligand binding,brain,10 µM,,inhibition,18%
